Results gathered from unrelated publications.
Numbered parts are unrelated; each lists some results of a single study. Substitutions count along the parent as printed.

Sample 1
Target: Fragile X messenger ribonucleoprotein 1, C-terminal low-complexity region (Fmr1, Mus musculus, UniProt P35922)
Method: RNA Bind-n-Seq
Molecule type: RNA
Sample: in vitro
Concentration: 200 nM
Setting: whole 134-nt RNA, ends assumed
Together with: 150 mM LiCl
Reference: input library
Reading: higher = stronger binding
Each molecule: 7-deaza-guanosine replaces G
All sequences stand within: GGGAGUUCUACAGUCCGACGAUC … UGGAAUUCUCGGGUGUCAAGG
| Strand | log2 enrichment |
| --- | --- |
| CUCAAGUCCUGUGCUACACAUCGUAUGUACCGAAUCGGUUGGGGUUGGGUUGGGAAAGUAUUAUGUUACGCCGUUCGGAUCUGCACUUCC | -0.037 |
| GAGGGAGUUUGCAGAUACCUCAGGAUUCGUGACAAUGCCUUUAAAGAUCCAGGAGAGAUGUUCAGCUACUAGGAACUGCUAGCAAGUAUA | -0.903 |
| CACAGACAACACGCACCCACACAGACACAGAGGGAAGGGGUUGGGAUGGGGACAGGGAAAACAGCAGGGCGGGGUAGGACCCCAGCCCCU | -0.0782 |
| UCCUGUGCUACACAUCGUAUGUACCGAAUCAAACCCCCAAACCCCCAAAUUUUUUUAAAAAAGUAUUAUGUUACGCCGUUCGGAUCUGCA | 1.55 |
| ACCAUGCAGGUGGACAUCUUUGGGAAGUGGGGCAAGGGGGGGAUAGGGAGGGGGGUAACACUUUGGGAACAGGUGGUCCCAGGUCGUUUC | 1.39 |
| GUCCUGUGCUACACAUCGUAUGUACCGAAUCGGGGAAAAGGGGAAAAGGGGAAAAGGGAAAGUAUUAUGUUACGCCGUUCGGAUCUGCAC | 0.758 |
| UCCUCAAGUCCUGUGCUACACAUCGUAUGUACCGAAUCGGAGGAGGGGAGGAAAGUAUUAUGUUACGCCGUUCGGAUCUGCACUUCCAGC | -2.53 |
| GUCCUGUGCUACACAUCGUAUGUACCGAAUCGGGGUUUGGGGAAAAAAAGGGGAGGGGAAAGUAUUAUGUUACGCCGUUCGGAUCUGCAC | 0.0927 |

Sample 2
Target: RING finger protein unkempt homolog, zinc fingers 1-6, GST-SBP tag (UNK, Homo sapiens, UniProt Q9C0B0, residues 30-357)
Method: RNA Bind-n-Seq
Molecule type: RNA
Sample: in vitro
Concentration: not given
Setting: RNA with constant flanks, ends assumed
Reference: input RNA pool
Reading: higher = stronger binding
All sequences stand within: GGGAGUUCUACAGUCCGACGAUC … CAACAGAGGAUUGAGCAUCA
Residues (chain): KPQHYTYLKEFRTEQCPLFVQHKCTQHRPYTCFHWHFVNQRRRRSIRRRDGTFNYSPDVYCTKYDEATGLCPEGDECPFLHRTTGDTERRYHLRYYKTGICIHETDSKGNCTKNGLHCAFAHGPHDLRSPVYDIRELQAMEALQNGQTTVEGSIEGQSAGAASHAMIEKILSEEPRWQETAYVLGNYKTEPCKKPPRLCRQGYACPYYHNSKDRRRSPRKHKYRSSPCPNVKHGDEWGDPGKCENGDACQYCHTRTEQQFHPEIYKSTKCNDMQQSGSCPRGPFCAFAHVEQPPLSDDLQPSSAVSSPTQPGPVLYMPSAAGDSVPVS
| Strand | bound/input enrichment [ratio] |
| --- | --- |
| UUUGCUCGACACACGGCUCUCAAGCCCCACGCAUGUCCUCGAUGCGGUAAGGGCUUCAAGCACCGCUUCAACUUGGCUAACCACCUGCGCUCACACACUGGUGAACGACCCUACCGAUGC | 0.137 |
| AGGGACACAGUGUGUGUCUGAUUGGGCUUCGCAUCAAAAGCCUGACGUUCCUGUCCCUCUUACCGGGGGAGCUUUGGACACAGGACCAGUUUGAUAAAGGGCCAGGUAAGGGUUUCCACU | 0.0503 |
| UAUGGUUAUGAGAAGCCAGAGGAACGCUGGUUACCUAUCCAUACUGUGGAAACCAUCAUGAUCCGUGUCAUUUCUAUGCUGGCAGAUCCUAAUGGAGACUCACCUGCAAAUGUAGAUGCU | 0.189 |
| GAGAUUGUCUUCCAGGGCUAGCAAUUGGACUUUUGAUGAUGUUUGACCCAGCGGCAGGAACCGCAGGCAACGUGAUUUCAAAGCUGGGCUCAGCCUCUGUUUCUUCUCUCGUGUAAUCGC | 0.268 |
| UGGCCACCUCCUCCUCAGAGUCUCUUCCCAAAAGAAUCCCCUAGCCAGGAUAAUGGGUGGCUCCGCCGAGGCUCAGGGAAGGAACAGGGAGAAGGGUGGCUGUGAGCUCAAGUCCCCCUC | 0.237 |
| GUGGCAUCAACAUCAAUGAACAGAGAAUCGUCUAGGUCUCAUGCCGUCUUUACAAUUACAACCGAGUCAAUGGAGAAAAGUAAUGAGAUUGUGAAUAUACGGACCUCCCUACUCAACCUG | 0.108 |
| UCUGAGGAUACCACUGAAGAGACAUUAAAGGAGUCAUUUGACGGCUCCGUUCGGGCAAGGACCGUUACUGACCGGGAAACUGGGUCCUCCAAAGGGUUUGGUUUUGUAGACUUCAACAGU | 0.126 |
| CUGCCCAAGAAGACCGAGAGCCACCACAAGGCCAAGGGCAAGUGAGGCCCCUACCGGUCGUCCGUGCGACUUUUACAGACACCAAAGGCUCUUUUCAGAGCCACCCACAACCUCAUUAGA | 0.284 |

Sample 3
Target: RNA binding protein fox-1 homolog 2, RRM domain, GST-SBP tag (RBFOX2, Homo sapiens, UniProt O43251-10, residues 100-194)
Method: RNA Bind-n-Seq
Molecule type: RNA
Sample: in vitro
Concentration: 365 nM
Setting: natural RNA segment, single round, ends assumed
Reference: no-protein control
Reading: higher = stronger binding
All sequences stand within: GGGAGUUCUACAGUCCGACGAUC … UGGAAUUCUCGGGUGCCAA
| Strand | RBNS enrichment (R) |
| --- | --- |
| AUUAGGUAACUAAAAAGCGCAAAUUGUUGGCAGGUUUUGCUGCACAUUGUUCUAUGUCUUUGUUGGCUGGUGUAUUUUAUAAACUAAAGCUGCCUAUGUUUCUUUUUAAA | 0.508 |
| CAGUUUUAUAUGAAAGAUUAGAAGCCUGGAAUAAUCAGGCUUUUUAAAUGAUGUAAUUCCCACUGUAAUAGCAUAGGGAUUUUGGAAGCAGCUGCUGGUGGCUUGGGACA | 0.409 |
| CUUAUAUUGUGGCAUAUAGUCAACAUGGAAGUAGACCAGCUCUGCUGAUUUGAAAUUUAGAUUUUUUAAAUUAUGUACUGGGGACAGGUUUUUGUCGCUUUACAUUGCUU | 0.5 |
| UCACCUGCUCCCUGCCCAUAUCUACCACAGGCCACUUUGGCAUGGUAUGUAAGCUGAGCUCUUCAUUCUGUCAUGAGAAGAGGACCAUGCUGCUAUCAUUUAUUUGGUCC | 0.417 |
| UGGACAGAUUGUAAGAGUAAGUCAUUUUCCUAAAGAAUUAGAUAUUUGUCACUGCCUAUACCUGCAGUUGAGCUGAAUGGUACUCCAUGUGUUAAUAAUUGUUCUGAUGA | 0.447 |
| CUCUAAGUUUGAGAGAAACCACUCCUCCAAGCUUCUCUGUUUCUUCCCAUUUCCUGUGGUCCUUUUUUUGUCAUCCCUUGAAGGUGCCCUUGAAAUCCUAAUCUAAGACA | 0.739 |
| CCCUUUAUCCUACUCAUCCCCGAUCUGGUCCCCUGUUCUCCAUAGUCCUUCACCCCCAAGCACCACUGUACAGACUGGGGACCAGCCCCUUCCCUGCCUGUGUCUCUUCC | 1.45 |
| CUUCAAAUAAUGAUCAAUGCUAUUUCAGUGAGCAAACUGUGAAAGGGGCUUUGGAAAGAGUAGGAGGGGUGGGCUGGAUCGGAAGCAACACCCAUUUGGGGUUACCAUGU | 0.448 |

Sample 4
Target: ABI1, truncated, D143A, DHFR fusion (Arabidopsis thaliana)
Method: DHFR PCA, deep sequencing
Sample: yeast
Setting: methotrexate growth selection, single substitutions
Together with: (+)-ABA 0.11 µM
Reference: wild-type fitted maximum
Reading: higher = stronger binding
Parent: PYL1, truncated, DHFR fusion (Arabidopsis thaliana); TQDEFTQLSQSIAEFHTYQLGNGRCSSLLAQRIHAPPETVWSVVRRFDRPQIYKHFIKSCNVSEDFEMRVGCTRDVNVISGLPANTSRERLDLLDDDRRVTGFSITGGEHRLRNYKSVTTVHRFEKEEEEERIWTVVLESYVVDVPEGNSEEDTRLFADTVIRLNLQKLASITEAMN; partner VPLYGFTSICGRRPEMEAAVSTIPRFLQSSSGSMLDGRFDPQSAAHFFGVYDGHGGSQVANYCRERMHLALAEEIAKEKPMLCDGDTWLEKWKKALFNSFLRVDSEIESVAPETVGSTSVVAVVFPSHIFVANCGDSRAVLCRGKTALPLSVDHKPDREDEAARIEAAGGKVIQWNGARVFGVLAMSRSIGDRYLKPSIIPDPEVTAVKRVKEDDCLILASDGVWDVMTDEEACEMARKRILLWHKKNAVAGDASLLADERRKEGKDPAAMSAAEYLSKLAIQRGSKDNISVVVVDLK
| Variant | relative binding score |
| --- | --- |
| D159F | -15.5% |
| H55S | 30% |
| E127N | 49.2% |
| S150G | 5.54% |
| T73I | 44.7% |
| N61A | 39.2% |
| R155T | 4.75% |
| V76Y | 0.664% |
| T6H | 40.3% |
| Y18H | 46.2% |
| R155Q | 7.56% |
| S9D | 15.3% |
| K168I | -7.19% |
| E152L | 7.6% |
| A175F | -5.16% |
| L166F | -4.68% |
| R46M | 4.73% |
